Earlier results that unrelated publications cite.
Protocols differ between the studies behind these lines.

COc1ccc(C(c2ccc(OC)cc2)C(Cl)(Cl)Cl)cc1 — logP: 5.08
ClC(Cl)=C(c1ccc(Cl)cc1)c1ccc(Cl)cc1 — logP: 6.37
Cc1ncc(OC[C@@]2(c3cccc(F)c3)C[C@H]2C(=O)Nc2ccc(F)cn2)c(C)n1 — logP (octanol/water): 3.04
Cc1ccnc(-c2cc(C)ccn2)c1.[Ru+2].c1ccc(-c2ccnc3c2ccc2c(-c4ccccc4)ccnc23)cc1.c1ccc(-c2ccnc3c2ccc2c(-c4ccccc4)ccnc23)cc1 — logP: 1.4
C[C@@H]1CC[C@@]2(OC1)O[C@H]1C[C@H]3[C@@H]4CC=C5C[C@@H](O[C@@H]6O[C@H](CO)[C@@H](O[C@@H]7O[C@@H](C)[C@H](O)[C@@H](O)[C@H]7O)[C@H](O)[C@H]6O[C@@H]6O[C@@H](C)[C@H](O)[C@@H](O)[C@H]6O)CC[C@]5(C)[C@H]4CC[C@]3(C)[C@H]1[C@@H]2C — logP: 1.71
CN1CC[C@]23c4c5ccc(O)c4O[C@H]2[C@@H](O)CC[C@H]3[C@H]1C5 — logP: 1.13
OCc1ncc2n1-c1ccc(Cl)cc1C(c1ccccc1F)=NC2 — logP octanol/water: 2.5
CCCCN(CCCC)CCC(O)c1cc2c(Cl)cc(Cl)cc2c2cc(C(F)(F)F)ccc12 (centres unmarked) — logP: 8.6
O=C(O)C(F)(F)C(F)(F)C(F)(F)C(F)(F)C(F)(F)C(F)(F)C(F)(F)F — logP (n-octanol/water): 3.6
ClC1=C(Cl)C2(Cl)C3C4CC(C5OC45)C3C1(Cl)C2(Cl)Cl (centres unmarked) — logP: 4.88
CNC(C)Cc1ccc2c(c1)OCO2 (centres unmarked) — logP: 2.07
CC1(C)CCC(CN2CCN(c3ccc(C(=O)NS(=O)(=O)c4ccc(NCC5CCOCC5)c([N+](=O)[O-])c4)c(Oc4cnc5[nH]ccc5c4)c3)CC2)=C(c2ccc(Cl)cc2)C1 — logP (octanol/water): 8
Cc1c2oc3c(C)ccc(C(=O)N[C@@H]4C(=O)N[C@H](C(C)C)C(=O)N5CCC[C@H]5C(=O)N(C)CC(=O)N(C)[C@@H](C(C)C)C(=O)O[C@@H]4C)c3nc-2c(C(=O)N[C@@H]2C(=O)N[C@H](C(C)C)C(=O)N3CCC[C@H]3C(=O)N(C)CC(=O)N(C)[C@@H](C(C)C)C(=O)O[C@@H]2C)c(N)c1=O — logP: -0.1
CC(C)C[C@H](NC(=O)CNC(=O)c1cc(Cl)ccc1Cl)B(O)O — logP: 2.07

Excerpt of the above:
CC(C)C[C@H](NC(=O)CNC(=O)c1cc(Cl)ccc1Cl)B(O)O — logP: 2.07
